Results of several laboratories.
Each numbered part is a random draw from the data of one study; scales do not carry over between parts. Changes are numbered by the printed parent chain.

Block 1
Target: CCND2, cyclin fold, Cln2 fusion (human)
Technique: yeast growth competition, sequencing
Sample: yeast
Setting: weak parent motif
Relative to: not given
Reading: higher = stronger binding
Starting sequence: GMNC docking peptide (human); KNAKRNLSSEFAN; partner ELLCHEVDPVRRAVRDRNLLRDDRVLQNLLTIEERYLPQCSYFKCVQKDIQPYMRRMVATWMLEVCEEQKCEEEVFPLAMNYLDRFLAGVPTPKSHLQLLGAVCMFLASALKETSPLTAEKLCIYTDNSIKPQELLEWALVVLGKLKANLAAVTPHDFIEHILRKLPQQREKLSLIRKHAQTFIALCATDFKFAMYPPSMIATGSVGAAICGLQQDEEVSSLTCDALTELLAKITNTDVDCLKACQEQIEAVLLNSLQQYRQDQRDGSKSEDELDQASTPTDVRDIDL
Variant | normalised enrichment score
S9R | 0.526
E10K | -0.41
A12I | 0.324
A12D | 0.227
N2G | 0.417
S8I | 0.0492
S9V | 0.252
A3E | 0.0881
F11R | -0.0592

Block 2
Target: Phosphate system positive regulatory protein PHO4, full length, GST-tagged (PHO4, Saccharomyces cerevisiae, UniProt P07270, residues 1-312)
Technique: competition protein-binding microarray
Form: double-stranded DNA, one strand shown
Sample: in vitro
Concentration: 2 µM
Setting: whole 60-bp probe, lowest competitor level
Together with: Cbf1 competitor, 0.05 µM
Reading: higher = stronger binding
Constant ends, left off below: … GTCTTGATTCGCTTGACGCTGCTG
Residues (chain): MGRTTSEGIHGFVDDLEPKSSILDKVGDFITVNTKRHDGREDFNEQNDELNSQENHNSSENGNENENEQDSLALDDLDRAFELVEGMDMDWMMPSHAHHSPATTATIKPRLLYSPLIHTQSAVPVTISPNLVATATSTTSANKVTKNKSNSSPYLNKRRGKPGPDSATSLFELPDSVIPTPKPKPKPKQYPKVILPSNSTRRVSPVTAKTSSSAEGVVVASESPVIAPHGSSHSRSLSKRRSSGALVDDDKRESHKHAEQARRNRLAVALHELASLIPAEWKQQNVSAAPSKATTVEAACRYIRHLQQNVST
Sequence | fluorescence intensity [a.u.]
CCTGCCGAAACGAGTCACGGCGATGAACAAAATAGG | 5990
CGTCAGTTGGAGCACCATGTGTCTTCTTGAAAGGAT | 9360
CATACCCAACCTTGCCGTGTGGGTGAAGATATTTGT | 6880
TTTTATCTCCGATAGTACGTGGGACTTTATTTATGG | 7930
GATCTACTATCAGTTTTCGTGGCCGATGGGTTACAT | 4040
TACGTATATTGCCTTCACATGCCGAGAAAGCCGACA | 6310
CTTTCCCGATCTTGCCAAGTGGGTGTAGCACATTTG | 4080
CCGACTGCGCAGCCCAACGTGCGGATAATTGGAGAC | 15300
ATCCAGAACATTTTGCACGTGTTCCTTATACAGTCG | 16900
CGGGGTTAAGTTTTTCACGTGGTTTGCTTGCAGCAG | 12300

Block 3
Target: Histone acetyltransferase KAT6A, winged helix 2, GST fusion (KAT6A, Homo sapiens, UniProt Q92794, residues 85-181)
Technique: protein binding microarray
Form: double-stranded DNA, one strand shown
Sample: in vitro
Concentration: not given
Setting: 8-mer, flanks averaged, mean of 2 arrays, mostly near background
Relative to: not given
Reading: higher = stronger binding
Residues (chain): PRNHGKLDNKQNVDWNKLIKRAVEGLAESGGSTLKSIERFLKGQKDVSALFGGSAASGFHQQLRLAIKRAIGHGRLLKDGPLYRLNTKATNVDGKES
Sequence | E-score
CTGAGCAA | 0.0252
GTCGTCTA | -0.16
CATGTGCC | -0.0398
GATCTGAC | 0.0472
CGGTAACA | -0.0692
CCGGCCGG | 0.271
CTTCCGGC | 0.229
ACCACGTC | -0.208
CGATCTGA | 0.0534
CCCGCTGA | -0.0539
GGGTGAAC | 0.164
CCTATTAA | -0.0555
GATGACAA | -0.042

Block 4
Target: UBE2E2 UBC core domain (UniProt Q96LR5)
Chain of UniProt Q96LR5 (whole entry, looked up): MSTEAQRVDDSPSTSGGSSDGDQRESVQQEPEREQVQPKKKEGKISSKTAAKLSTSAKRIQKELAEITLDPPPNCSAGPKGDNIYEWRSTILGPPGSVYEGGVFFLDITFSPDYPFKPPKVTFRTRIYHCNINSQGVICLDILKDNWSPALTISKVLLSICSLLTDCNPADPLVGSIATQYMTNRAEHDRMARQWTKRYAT
Technique: yeast two-hybrid
Sample: yeast
Setting: mostly zero background
Relative to: not given
Reading: higher = stronger interaction
B1: TRIM43 RING domain (UniProt Q96BQ3); chain FSHAFQKELTCVICLNYLVDPVTICCGHSFCRPCLCLSWEEAQSPANCPACREPSPKMDFKT
B2: TRAF5 RING domain (UniProt O00463); chain FVERLEERYKCAFCHSVLHNPHQTGCGHRFCQHCILSLRELNTVPICPVDKEVIKSQEVFK
B3: DTX4 RING domain (UniProt Q9Y2E6); chain QKVRHPPDEDCTICMERLTAPSGYKGPQPTVKPDLVGKLSRCGHVYHIYCLVAMYNNGNKDGSLQCPTCKTIYGVKTGTQ
B4: RNF38 RING domain (UniProt Q9H0F5); chain PNNHQSEQTLCVVCMCDFESRQLLRVLPCNHEFHAKCVDKWLKANRTCPICRADASEVHRDS
Molecule | lacZ reporter activity
PAELEVQASECVVCLEREAQMIFLNCGHVCCCQQCCQPLRTCPLCRQDIAQRLRIY (LRSAM1 RING domain (UniProt Q6UWE0)) | 0
B1 (TRIM43 RING domain) | 0
B2 (TRAF5 RING domain) | 0
B3 (DTX4 RING domain) | 0
B4 (RNF38 RING domain) | 0
DHGAVGQEMCCPICCSEYVKGEVATELPCHHYFHKPCVSIWLQKSGTCPVCRCMFPPPL (PJA1 RING domain (UniProt Q8NG27)) | 0

Block 5
Target: RNA binding protein fox-1 homolog 2, RRM domain, GST-SBP tag (RBFOX2, Homo sapiens, UniProt O43251-10, residues 100-194)
Technique: RNA Bind-n-Seq
Form: RNA
Sample: in vitro
Concentration: 365 nM
Setting: natural RNA segment, single round, ends assumed
Relative to: no-protein control
Reading: higher = stronger binding
Constant ends, left off below: GGGAGUUCUACAGUCCGACGAUC … UGGAAUUCUCGGGUGCCAA
Construct (chain): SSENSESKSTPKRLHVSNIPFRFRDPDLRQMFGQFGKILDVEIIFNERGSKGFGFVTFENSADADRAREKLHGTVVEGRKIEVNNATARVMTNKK
Sequence | RBNS enrichment (R)
CCCAGUGGCUGCCAUGGUCCUCUUCAGGCUCAGAGAUGGGUCUAGCCCUGGCCUUGCUCUGAUCAGCCUGCUCCUGGGGCAUGGGUGCUCCCGCUUCUGCUCUGCUUGGG | 0.279
CCUUUCUUUGCCAUGAGGCCAUGAGGCCCGCUUCAUCCUUUUCUAUUUCCCUAGAACCUUAAUGGUAGAAGGAAUUGCAAAGAAUCAAGUCCACCCUUCUCAUGUGACAG | 0.266
AGACUUCCUGUUAGGGGCAAUGUGUUCAUUAUAAAGGCAUAAGGACACCACACCAGCUUGUUGGUUCCUGAUGGUUUUCUUAGACUUCUCCGCUCCCCCCACAUCCCAGC | 0.558
AAUUCUGAUUAGAGAUAUAGAUAUUACUGGAAACUAAUUGUUUUUUUUCUAUUGUACUCUGCUUUAUCAAAGAAGUAAAACAUUUAAAUCGUACUACAGAAAUUAAGAUG | 0.505
UUAAUCAGUGUGAUUAAUGCAGCACCCAUUGCCCCGGGAACCGUUUCUGCUGUACUAUCUGGAUACUAAAAUGUUACGGAAGUAGCUCUUUGUUCUCCCUCACUCUGCCC | 0.478
GGAGAGUCCUUCUAAACCUAUAUUCUGCUCCACCGCAACUCCCUCACCUAUCCUCAGGCUCACAGUGGAAAUGUCCAGGGACAGGGCUGUUAGAAUGAGCUAAGGGAGAC | 0.423
ACUCAACAAUAAGGUUUUAGUUACUGUAUACACUUAACCAAGUUGUGUGACCUAUGACCUACUUUGCAUGCUCUGAUACUGUGUGCCGCCCCCACCCCCACCCCCCAGGU | 1.68
CCGGGUGUGGCACGCACCUGUAGUCCCAGCUACUUGGGAGCCUGAGGCAGGAGAAUCGCUUGAACCUGGGAAGUGGAGGUUGAGUGAGCCGGGACCGUGCCAUUGUACUC | 1.05

Block 6
Target: Sal-like protein 4, full length isoform A (SALL4, Homo sapiens, UniProt Q9UJQ4, residues 1-1053)
Chain of UniProt Q9UJQ4 (whole entry, looked up): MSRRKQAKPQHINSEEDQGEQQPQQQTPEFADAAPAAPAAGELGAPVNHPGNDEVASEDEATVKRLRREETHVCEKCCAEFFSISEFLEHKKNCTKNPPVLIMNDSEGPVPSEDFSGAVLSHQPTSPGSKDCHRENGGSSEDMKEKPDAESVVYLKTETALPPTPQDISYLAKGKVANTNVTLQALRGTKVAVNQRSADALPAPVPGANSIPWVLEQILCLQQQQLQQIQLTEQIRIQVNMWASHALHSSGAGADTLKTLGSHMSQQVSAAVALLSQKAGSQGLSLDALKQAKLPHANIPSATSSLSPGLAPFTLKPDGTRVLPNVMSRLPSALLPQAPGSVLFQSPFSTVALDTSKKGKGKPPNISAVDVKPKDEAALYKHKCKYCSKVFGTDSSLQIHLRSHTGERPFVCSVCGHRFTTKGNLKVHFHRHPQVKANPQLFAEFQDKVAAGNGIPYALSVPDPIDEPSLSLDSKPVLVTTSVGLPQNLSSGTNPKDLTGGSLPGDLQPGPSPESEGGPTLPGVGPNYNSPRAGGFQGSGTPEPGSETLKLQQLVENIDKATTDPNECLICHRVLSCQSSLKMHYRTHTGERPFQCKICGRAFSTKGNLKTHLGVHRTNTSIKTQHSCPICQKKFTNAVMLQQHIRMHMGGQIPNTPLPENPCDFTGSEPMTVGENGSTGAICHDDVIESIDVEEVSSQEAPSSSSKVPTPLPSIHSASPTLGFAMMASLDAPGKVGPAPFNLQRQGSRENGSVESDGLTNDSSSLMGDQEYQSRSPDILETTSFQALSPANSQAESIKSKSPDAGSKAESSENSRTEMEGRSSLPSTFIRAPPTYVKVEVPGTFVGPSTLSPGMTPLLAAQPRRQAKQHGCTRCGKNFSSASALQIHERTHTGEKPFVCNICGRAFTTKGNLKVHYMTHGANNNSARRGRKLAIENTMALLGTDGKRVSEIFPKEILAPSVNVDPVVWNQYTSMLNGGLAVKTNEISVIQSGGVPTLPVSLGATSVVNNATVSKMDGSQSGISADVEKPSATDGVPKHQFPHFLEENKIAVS
Technique: universal PBM
Form: double-stranded DNA, one strand shown
Sample: in vitro
Concentration: 600 nM
Setting: 8-mer, flanks averaged, mean of replicates
Reading: higher = stronger binding
Sequence | E-score
AAATACGG | 0.192
AGTGAGGC | -0.279
AGGCGCGA | -0.184
TAAGTTCA | 0.0957
GGCAGTTA | 0.0243
ACGCGCGT | -0.0859
TCATAAGA | 0.34
AGTGCTGA | -0.151

Further values, each from its own experiment
Technique: cross-linking MS
Setting: hits only
Molecule | partner | interaction screen
DDX5 (Homo sapiens, UniProt P17844) | DDX17 (Homo sapiens, UniProt Q92841) | cross-linked
RPN2 (Homo sapiens, UniProt P04844) | DDOST (Homo sapiens, UniProt P39656) | cross-linked
ATP5F1A (Homo sapiens, UniProt P25705) | ATP5F1C (Homo sapiens, UniProt P36542) | cross-linked
TIMM50 (Homo sapiens, UniProt Q3ZCQ8) | ATAD3A (Homo sapiens, UniProt Q9NVI7) | cross-linked

Excerpt of the above (block 5):
Sequence | RBNS enrichment (R)
AGACUUCCUGUUAGGGGCAAUGUGUUCAUUAUAAAGGCAUAAGGACACCACACCAGCUUGUUGGUUCCUGAUGGUUUUCUUAGACUUCUCCGCUCCCCCCACAUCCCAGC | 0.558
AAUUCUGAUUAGAGAUAUAGAUAUUACUGGAAACUAAUUGUUUUUUUUCUAUUGUACUCUGCUUUAUCAAAGAAGUAAAACAUUUAAAUCGUACUACAGAAAUUAAGAUG | 0.505
UUAAUCAGUGUGAUUAAUGCAGCACCCAUUGCCCCGGGAACCGUUUCUGCUGUACUAUCUGGAUACUAAAAUGUUACGGAAGUAGCUCUUUGUUCUCCCUCACUCUGCCC | 0.478
GGAGAGUCCUUCUAAACCUAUAUUCUGCUCCACCGCAACUCCCUCACCUAUCCUCAGGCUCACAGUGGAAAUGUCCAGGGACAGGGCUGUUAGAAUGAGCUAAGGGAGAC | 0.423
ACUCAACAAUAAGGUUUUAGUUACUGUAUACACUUAACCAAGUUGUGUGACCUAUGACCUACUUUGCAUGCUCUGAUACUGUGUGCCGCCCCCACCCCCACCCCCCAGGU | 1.68
CCGGGUGUGGCACGCACCUGUAGUCCCAGCUACUUGGGAGCCUGAGGCAGGAGAAUCGCUUGAACCUGGGAAGUGGAGGUUGAGUGAGCCGGGACCGUGCCAUUGUACUC | 1.05
